Measured values from different studies.
Protocols differ between the studies behind these lines. Values joined by “and” are separate records of one study, mostly repeats; a detail may differ. Numbers after ± are the reported error.

SMILES	cell line	assay	test system	conditions	scale	endpoint	value
Cn1cncc1C1=CN(c2ncnc3[nH]cnc23)CCS1	NCI-H23	–	–	lung cancer	–	CC50	> 200 µM
C=C[C@H]1CN2CC[C@H]1C[C@H]2[C@H](OC(=O)OCC)c1ccnc2ccc(OC)cc12	human iPSC-derived cardiomyocytes	MyBP-C/MYH ratio, plate-normalised SD score	–	concentration not given, primary screen	direction not given	activity score	4.3
Cn1cc(C2=C(c3cn(C4CCN(Cc5ccccn5)CC4)c4ccccc34)C(=O)NC2=O)c2ccccc21	iCell Cardiomyocytes (hiPSC-derived)	cellular impedance	–	concentration not given, 24 h	relative to: control	cell index	97.7%
COc1c(CCC[P+](c2ccccc2)(c2ccccc2)c2ccccc2)cc2c(c1OC)OCO2.[I-]	NCI-H23	SRB	–	–	–	LC50	> -4 log M
CC(C)C[C@H](NC(=O)[C@H](CC(C)C)NC(=O)[C@H](CCCNC(=N)N)NC(=O)[C@H](Cc1c[nH]cn1)NC(=O)[C@H](CC(C)C)NC(=O)[C@H](CCCNC(=N)N)NC(=O)[C@H](CCCNC(=N)N)NC(=O)[C@H](Cc1c[nH]c2ccccc12)NC(=O)[C@H](CC(C)C)NC(=O)[C@H](CCCNC(=N)N)NC(=O)[C@H](Cc1c[nH]c2ccccc12)NC(=O)[C@H](CC(C)C)NC(=O)[C@H](CC(C)C)NC(=O)[C@H](Cc1c[nH]cn1)NC(=O)[C@H](Cc1c[nH]c2ccccc12)NC(=O)[C@H](CC(C)C)NC(=O)[C@@H](N)CCCNC(=N)N)C(=O)N[C@@H](CCCNC(=N)N)C(=O)N[C@@H](CS)C(N)=O	human red blood cells	–	–	pH 7.4	relative to: Triton X-100	EC50	> 100 µM
Nc1ncc(-c2nc(N3CCOCC3)nc(N3CCOCC3)n2)c(C(F)F)n1	ASPC1	–	–	72 h	–	GI50	0.306 µM
CC(C)N1CCC(NC2CCN(c3cccc(-c4cc5cc(F)ccc5[nH]4)c3)CC2)CC1	U-251	–	–	–	–	TGI	3.06 µM
CC[C@H](C)[C@H](NC(=O)[C@H](CC(C)C)NC(=O)[C@H](C)NC(=O)[C@H](CC(C)C)NC(=O)[C@@H](N)Cc1ccccc1)C(=O)N[C@@H](CC(C)C)C(=O)N[C@@H](CCCNC(=N)N)C(=O)N[C@@H](CCCCN)C(=O)N[C@H](C(=O)N[C@H](C(=O)N[C@H](C(=O)N[C@@H](C)C(=O)N[C@@H](CC(C)C)C(=O)N[C@@H](CS)C(N)=O)[C@@H](C)O)C(C)C)[C@@H](C)CC	human red blood cells	–	–	pH 7.4	relative to: Triton X-100	EC50	16 µM
COc1cc(CCC[P+](c2ccccc2)(c2ccccc2)c2ccccc2)c(OC)c2c1OCO2.[I-]	NCI-H23	SRB	–	–	–	GI50	-5.78 log M
CN1CCN(C2(CNC3CCN(c4cccc(-c5cc6cc(F)ccc6[nH]5)c4)CC3)CCC2)CC1	HCC 2998	–	–	–	–	CC50	5.69 µM
Oc1ccc(C(c2ccc(O)cc2)(C(F)(F)F)C(F)(F)F)cc1	HepG2 spheroids	Hoechst flow cytometry	–	10 µM, 96 h	–	S phase cells	8.15 ± 1.18%
CN[C@@H]1C[C@H]2O[C@@](C)([C@@H]1OC)n1c3ccccc3c3c4c(c5c6ccccc6n2c5c31)C(=O)NC4	U2OS overexpressing wild-type DDR1	cell growth	–	–	–	GI50	0.012 µM
Cc1ncsc1-c1ccc(CNC(=O)[C@@H]2C[C@@H](O)CN2C(=O)[C@@H](NC(=O)C2(F)CC2)C(C)(C)C)c(OCCOc2ccc(CN3CCN(c4cc(-c5ccccc5O)nnc4N)CC3)cc2)c1	H1975 SMARCA4 wild type	ATAC-seq	–	1 µM, 96 h	–	lost enhancer peaks	43%
Cc1c(O)c(O)cc2c1CC=C1[C@@]2(C)CC[C@@]2(C)[C@@H]3C[C@](C)(C(=O)O)CC[C@]3(C)CC[C@]12C	human iPSC-derived cardiomyocytes	MyBP-C/MYH ratio, plate-normalised SD score	–	concentration not given, primary screen	direction not given	activity score	8.4
O=c1c(O)c(-c2ccc(O)c(O)c2)oc2cc(O)cc(O)c12	induced SH-SY5Y Aβ-GFP cells	–	–	5 µM	–	neurite process number	3.5 to 3.6
Cn1nccc1Nc1nccc(-c2ccn([C@H](CO)c3ccc(Cl)c(F)c3)c(=O)c2)n1	HCT116	IncuCyte	–	concentration not given, 16 (unit not given)	–	PI-positive cells	2.75 count and 4.42 count and 4 count
c1ccc([C@@H]2C[C@H]2NC2CCNCC2)cc1	HBL-1	–	–	1 µM, 120 h	–	viability	114%
CN1CCN(S(=O)(=O)c2cc([N+](=O)[O-])ccc2N(CCOS(C)(=O)=O)CCOS(C)(=O)=O)CC1	HCT-116 wild-type	cell growth, sulforhodamine B	–	96 h	–	IC50	5.5 µM

SMILES	cell line	assay	test system	conditions	scale	endpoint	value
CCN(CC)c1ccc(C=NNC(=O)CSc2nc3ccccc3c(=O)n2Cc2ccc(S(N)(=O)=O)cc2)c(O)c1	U-251	NCI five-dose screen	–	–	–	CC50	> 100 µM
O=C1N(Cc2ccccc2Cl)c2ccccc2C12NN=C(c1ccccc1)S2 (stereo not drawn)	MDA-MB-468	gene expression array, refers to: INHBE mRNA	–	10 µM, 12 h	relative to: untreated, up	fold change	1.52
Nc1ncnc2c1ncn2[C@@H]1O[C@@H]2COP(=O)(O)O[C@H]3[C@@H](O)[C@H](n4cnc5c(=O)[nH]cnc54)O[C@@H]3COP(=O)(O)O[C@H]2[C@H]1O	HFF-1	RNA sequencing Reactome analysis, refers to: Reactome R-HSA-8983711 OAS antiviral response	–	added: West Nile virus infection	relative to: West Nile virus infected cells, upregulated pathway	pathway fold enrichment	17.1
Oc1ccc(C2(c3ccc(O)cc3)c3ccccc3-c3ccccc32)cc1	HepG2 spheroids	Hoechst flow cytometry	–	10 µM, 96 h	–	G2 phase cells	16.5 ± 5.85%
C[C@]12CC[C@H]3[C@@H](CC[C@]4(O)C[C@@H](O)CC[C@]34C=O)[C@@]1(O)CC[C@@H]2C1=CC(=O)OC1	human iPSC-derived cardiomyocytes	MyBP-C/MYH ratio, plate-normalised SD score	–	concentration not given, primary screen	direction not given	activity score	4.4
O=C1NC(=O)c2c1c1c3ccccc3n3c1c1c2c2ccccc2n1C1CCC3O1	HeLa expressing Ub(G76V)-GFP	Ub(G76V)-GFP degradation, cycloheximide chase	–	12 µM	–	inhibition	100%
O=C(N/N=C/c1ccc(Sc2ccccn2)s1)c1cccc(F)c1	D458 medulloblastoma	–	–	–	–	GI50	1.9 µM
COc1ccc2c(c1)[nH]c1c(C)nccc12	DU-145	bisulfite pyrosequencing, refers to: RASSF1A promoter CpG site 21	–	10 µM, 16 h	–	DNA methylation	92.9%
Cn1cc2cc(C(F)(F)c3nnc4ccc(-c5cnn(C6CC6)c5)nn34)c(F)cc2n1	MKN-45	PI flow cytometry	–	2 nM, 24 h	–	cells in S phase	48.6% and 40.2% and 40.6%
COc1c(C)c2c(c(O)c1C/C=C(\C)CCC(=O)O)C(=O)OC2	T24	cell proliferation	bladder cancer	–	–	IC50	1 µM
C/C=C(/C)C(=O)O[C@H]1C(C)=C2[C@H]([C@@H]1OC(=O)CCCCCCC)[C@@](C)(OC(C)=O)C[C@H](OC(=O)CCC)[C@@]1(O)[C@H]2OC(=O)[C@@]1(C)O	HEK293T	RNA-seq, refers to: HSPB1 mRNA	–	10 µM, 6 h	relative to: vehicle	log2 fold change	-0.534
CC[C@H](C)[C@H](NC(=O)CN)C(=O)NCC(=O)N[C@@H](C)C(=O)N[C@H](C(=O)N[C@@H](CC(C)C)C(=O)N[C@@H](CCCCN)C(=O)N[C@H](C(=O)N[C@@H](CC(C)C)C(=O)N[C@H](C(=O)N[C@H](C(=O)NCC(=O)N[C@@H](CC(C)C)C(=O)N1CCC[C@H]1C(=O)N[C@@H](C)C(=O)N[C@@H](CC(C)C)C(=O)N[C@H](C(=O)N[C@@H](CO)C(=O)N[C@@H](Cc1c[nH]c2ccccc12)C(=O)N[C@H](C(=O)N[C@@H](Cc1c[nH]cn1)C(=O)N[C@@H](Cc1c[nH]cn1)C(=O)N[C@@H](Cc1c[nH]cn1)C(=O)N[C@@H](Cc1c[nH]cn1)C(=O)N[C@@H](CCC(=O)O)C(=O)N[C@@H](CCC(=O)O)C(=O)N[C@@H](CS)C(N)=O)[C@@H](C)CC)[C@@H](C)CC)[C@@H](C)O)[C@@H](C)O)C(C)C)C(C)C	human red blood cells	–	–	pH 5.5	relative to: Triton X-100	EC50	14 µM
C[C@]12CC[C@H](O)C[C@H]1CC[C@@H]1[C@@H]2CC[C@]2(C)[C@@H](C3=CC(=O)OC3)[C@@H](O)C[C@]12O	human iPSC-derived cardiomyocytes	MyBP-C/MYH ratio, plate-normalised SD score	–	concentration not given, primary screen	direction not given	activity score	5.9
Cc1sc2c(c1C)C(c1ccc(Cl)cc1)=N[C@@H](CC(N)=O)c1nnc(C)n1-2	HBL-1	–	–	1 µM, 120 h	–	viability	14.6%
CC(c1ccccc1)(c1ccc(O)cc1)c1ccc(O)cc1	HepG2 spheroids	Hoechst flow cytometry	–	10 µM, 24 h	–	G1 phase cells	73.6 ± 4.63%
COc1ccc([C@H]2c3[nH]c4ccc(Cl)cc4c3CCN2C(=O)Oc2ccc(Cl)cc2)cc1	HUVEC and Th2 blast co-culture	BioMAP /TH2, refers to: MCP-1	–	0.1 µM	–	inhibition	25%
CC(C)=CCC[C@](C)(O)[C@H]1CC[C@]2(C)[C@@H]1[C@H](O)C[C@@H]1[C@@]3(C)CC[C@H](O)C(C)(C)[C@@H]3[C@@H](O[C@@H]3O[C@H](CO)[C@@H](O)[C@H](O)[C@H]3O)C[C@]12C	HepG2	cell viability, CCK-8	–	20 µM	higher = more viable cells	optical density	1.16 a.u. and 1.2 a.u. and 1 a.u. and 1.12 a.u. and 1.17 a.u.
Cc1cnc2ccc3c(nc(N)n3C)c2n1	BALB/c 3T3	–	–	1 µM	relative to: solvent control	relative colony forming efficiency	99 ± 10%

A few entries again:
SMILES	cell line	assay	test system	conditions	scale	endpoint	value
CC(C)C[C@H](NC(=O)[C@H](CC(C)C)NC(=O)[C@H](CCCNC(=N)N)NC(=O)[C@H](Cc1c[nH]cn1)NC(=O)[C@H](CC(C)C)NC(=O)[C@H](CCCNC(=N)N)NC(=O)[C@H](CCCNC(=N)N)NC(=O)[C@H](Cc1c[nH]c2ccccc12)NC(=O)[C@H](CC(C)C)NC(=O)[C@H](CCCNC(=N)N)NC(=O)[C@H](Cc1c[nH]c2ccccc12)NC(=O)[C@H](CC(C)C)NC(=O)[C@H](CC(C)C)NC(=O)[C@H](Cc1c[nH]cn1)NC(=O)[C@H](Cc1c[nH]c2ccccc12)NC(=O)[C@H](CC(C)C)NC(=O)[C@@H](N)CCCNC(=N)N)C(=O)N[C@@H](CCCNC(=N)N)C(=O)N[C@@H](CS)C(N)=O	human red blood cells	–	–	pH 7.4	relative to: Triton X-100	EC50	> 100 µM
Nc1ncc(-c2nc(N3CCOCC3)nc(N3CCOCC3)n2)c(C(F)F)n1	ASPC1	–	–	72 h	–	GI50	0.306 µM
CC(C)N1CCC(NC2CCN(c3cccc(-c4cc5cc(F)ccc5[nH]4)c3)CC2)CC1	U-251	–	–	–	–	TGI	3.06 µM
CC[C@H](C)[C@H](NC(=O)[C@H](CC(C)C)NC(=O)[C@H](C)NC(=O)[C@H](CC(C)C)NC(=O)[C@@H](N)Cc1ccccc1)C(=O)N[C@@H](CC(C)C)C(=O)N[C@@H](CCCNC(=N)N)C(=O)N[C@@H](CCCCN)C(=O)N[C@H](C(=O)N[C@H](C(=O)N[C@H](C(=O)N[C@@H](C)C(=O)N[C@@H](CC(C)C)C(=O)N[C@@H](CS)C(N)=O)[C@@H](C)O)C(C)C)[C@@H](C)CC	human red blood cells	–	–	pH 7.4	relative to: Triton X-100	EC50	16 µM
COc1cc(CCC[P+](c2ccccc2)(c2ccccc2)c2ccccc2)c(OC)c2c1OCO2.[I-]	NCI-H23	SRB	–	–	–	GI50	-5.78 log M
